Measurements of several laboratories.
Each numbered part is a random draw from the data of one study; scales do not carry over between parts.
Sequence of UniProt Q8NG66 (whole entry, looked up): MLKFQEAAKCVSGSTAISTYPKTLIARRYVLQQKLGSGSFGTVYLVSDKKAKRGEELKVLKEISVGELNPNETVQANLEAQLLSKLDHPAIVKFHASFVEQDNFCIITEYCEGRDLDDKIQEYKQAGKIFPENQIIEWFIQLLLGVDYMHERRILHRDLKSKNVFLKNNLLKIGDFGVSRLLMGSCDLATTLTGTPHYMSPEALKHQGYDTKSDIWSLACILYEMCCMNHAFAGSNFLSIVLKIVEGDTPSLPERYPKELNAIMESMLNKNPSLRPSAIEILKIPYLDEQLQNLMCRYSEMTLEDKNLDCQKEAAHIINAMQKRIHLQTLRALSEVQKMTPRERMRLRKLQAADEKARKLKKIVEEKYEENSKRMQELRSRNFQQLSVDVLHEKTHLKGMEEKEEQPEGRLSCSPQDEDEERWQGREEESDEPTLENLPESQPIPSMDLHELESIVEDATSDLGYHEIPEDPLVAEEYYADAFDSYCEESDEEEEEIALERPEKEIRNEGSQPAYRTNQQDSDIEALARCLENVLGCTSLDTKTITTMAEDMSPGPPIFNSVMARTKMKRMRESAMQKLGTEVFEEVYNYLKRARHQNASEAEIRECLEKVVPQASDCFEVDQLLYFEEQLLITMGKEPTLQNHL
Sequence of UniProt P42679 (whole entry, looked up): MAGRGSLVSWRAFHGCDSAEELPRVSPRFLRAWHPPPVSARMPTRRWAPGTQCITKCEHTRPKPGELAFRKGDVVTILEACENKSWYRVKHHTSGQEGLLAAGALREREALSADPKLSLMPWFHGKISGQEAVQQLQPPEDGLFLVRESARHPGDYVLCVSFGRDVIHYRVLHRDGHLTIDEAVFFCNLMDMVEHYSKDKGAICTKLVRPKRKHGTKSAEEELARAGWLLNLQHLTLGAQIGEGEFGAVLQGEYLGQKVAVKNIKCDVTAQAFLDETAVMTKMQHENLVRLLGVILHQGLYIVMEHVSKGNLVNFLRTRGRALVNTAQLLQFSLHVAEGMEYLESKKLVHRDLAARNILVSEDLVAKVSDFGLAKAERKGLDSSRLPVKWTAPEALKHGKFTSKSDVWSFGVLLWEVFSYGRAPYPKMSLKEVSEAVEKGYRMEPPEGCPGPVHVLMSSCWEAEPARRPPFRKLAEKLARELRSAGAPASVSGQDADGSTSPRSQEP
Sequence of UniProt P54762 (whole entry, looked up): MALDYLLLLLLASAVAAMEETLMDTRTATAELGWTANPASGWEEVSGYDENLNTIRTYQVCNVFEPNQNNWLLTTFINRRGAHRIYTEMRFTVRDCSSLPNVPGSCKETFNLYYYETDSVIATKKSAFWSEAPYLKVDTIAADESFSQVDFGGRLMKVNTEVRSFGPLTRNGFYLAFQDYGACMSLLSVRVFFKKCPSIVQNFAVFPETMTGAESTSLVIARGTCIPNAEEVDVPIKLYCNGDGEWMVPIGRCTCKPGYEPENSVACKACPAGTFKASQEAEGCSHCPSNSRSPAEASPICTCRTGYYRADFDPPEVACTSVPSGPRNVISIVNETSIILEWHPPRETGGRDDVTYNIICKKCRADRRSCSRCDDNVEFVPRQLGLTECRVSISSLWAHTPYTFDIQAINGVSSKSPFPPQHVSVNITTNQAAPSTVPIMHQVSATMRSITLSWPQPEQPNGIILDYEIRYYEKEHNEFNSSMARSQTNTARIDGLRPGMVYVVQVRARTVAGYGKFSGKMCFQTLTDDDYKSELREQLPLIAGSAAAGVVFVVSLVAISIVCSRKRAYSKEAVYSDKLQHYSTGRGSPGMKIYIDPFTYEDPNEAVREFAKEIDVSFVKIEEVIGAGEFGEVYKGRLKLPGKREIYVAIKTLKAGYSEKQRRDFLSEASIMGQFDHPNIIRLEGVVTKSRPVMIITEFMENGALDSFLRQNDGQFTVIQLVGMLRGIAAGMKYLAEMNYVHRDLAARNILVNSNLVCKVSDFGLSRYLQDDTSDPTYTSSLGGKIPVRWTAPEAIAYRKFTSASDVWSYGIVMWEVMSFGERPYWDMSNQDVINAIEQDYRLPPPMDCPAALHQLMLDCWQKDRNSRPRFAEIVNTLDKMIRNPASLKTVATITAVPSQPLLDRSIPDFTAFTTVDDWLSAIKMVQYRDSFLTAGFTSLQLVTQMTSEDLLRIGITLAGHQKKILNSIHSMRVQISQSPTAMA
Sequence of UniProt P57058 (whole entry, looked up): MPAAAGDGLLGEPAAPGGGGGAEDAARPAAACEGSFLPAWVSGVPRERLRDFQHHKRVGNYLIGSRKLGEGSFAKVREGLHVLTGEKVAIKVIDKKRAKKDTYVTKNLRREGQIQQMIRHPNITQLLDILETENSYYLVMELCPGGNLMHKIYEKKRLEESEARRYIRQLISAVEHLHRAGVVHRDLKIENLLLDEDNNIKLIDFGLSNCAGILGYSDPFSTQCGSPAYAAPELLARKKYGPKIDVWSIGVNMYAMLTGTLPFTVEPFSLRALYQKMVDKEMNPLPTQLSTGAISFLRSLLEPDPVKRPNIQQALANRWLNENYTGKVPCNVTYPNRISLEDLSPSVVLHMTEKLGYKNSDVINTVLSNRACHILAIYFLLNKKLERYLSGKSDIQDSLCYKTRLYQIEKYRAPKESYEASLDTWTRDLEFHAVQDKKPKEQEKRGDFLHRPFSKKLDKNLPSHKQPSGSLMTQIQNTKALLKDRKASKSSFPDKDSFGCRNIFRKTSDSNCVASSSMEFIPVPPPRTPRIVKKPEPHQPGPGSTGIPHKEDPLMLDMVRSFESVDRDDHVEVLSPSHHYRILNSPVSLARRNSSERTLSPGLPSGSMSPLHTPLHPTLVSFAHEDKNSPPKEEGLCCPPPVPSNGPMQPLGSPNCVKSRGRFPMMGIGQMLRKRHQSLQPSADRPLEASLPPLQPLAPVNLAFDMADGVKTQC
Sequence of UniProt O00506 (whole entry, looked up): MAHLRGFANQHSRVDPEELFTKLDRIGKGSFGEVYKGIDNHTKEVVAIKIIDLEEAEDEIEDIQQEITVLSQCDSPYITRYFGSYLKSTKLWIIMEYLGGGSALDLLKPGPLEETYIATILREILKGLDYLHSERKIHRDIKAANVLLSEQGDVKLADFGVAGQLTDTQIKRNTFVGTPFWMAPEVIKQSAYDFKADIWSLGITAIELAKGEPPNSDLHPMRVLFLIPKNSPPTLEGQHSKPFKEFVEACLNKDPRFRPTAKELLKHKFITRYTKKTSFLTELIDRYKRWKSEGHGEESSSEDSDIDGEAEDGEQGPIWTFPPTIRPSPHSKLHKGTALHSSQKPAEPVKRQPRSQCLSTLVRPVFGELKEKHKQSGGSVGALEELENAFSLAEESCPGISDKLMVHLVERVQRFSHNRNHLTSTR
Sequence of UniProt P53667 (whole entry, looked up): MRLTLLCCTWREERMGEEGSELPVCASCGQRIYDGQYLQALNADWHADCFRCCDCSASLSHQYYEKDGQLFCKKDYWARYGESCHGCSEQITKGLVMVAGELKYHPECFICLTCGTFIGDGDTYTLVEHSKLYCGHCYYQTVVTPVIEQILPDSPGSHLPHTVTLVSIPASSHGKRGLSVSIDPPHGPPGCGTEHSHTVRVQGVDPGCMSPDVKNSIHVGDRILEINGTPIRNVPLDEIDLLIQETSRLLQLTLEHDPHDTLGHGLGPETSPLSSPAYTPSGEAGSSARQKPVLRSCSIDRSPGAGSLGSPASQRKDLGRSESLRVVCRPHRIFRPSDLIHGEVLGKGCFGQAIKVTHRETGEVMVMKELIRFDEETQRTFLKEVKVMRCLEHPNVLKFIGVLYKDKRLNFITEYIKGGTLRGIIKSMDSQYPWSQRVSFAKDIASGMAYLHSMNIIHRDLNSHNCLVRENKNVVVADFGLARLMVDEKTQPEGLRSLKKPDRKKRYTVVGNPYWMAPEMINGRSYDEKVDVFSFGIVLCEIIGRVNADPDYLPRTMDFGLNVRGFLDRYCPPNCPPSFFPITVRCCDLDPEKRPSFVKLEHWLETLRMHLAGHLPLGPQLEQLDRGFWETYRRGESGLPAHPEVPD
Sequence of UniProt Q9UBE8 (whole entry, looked up): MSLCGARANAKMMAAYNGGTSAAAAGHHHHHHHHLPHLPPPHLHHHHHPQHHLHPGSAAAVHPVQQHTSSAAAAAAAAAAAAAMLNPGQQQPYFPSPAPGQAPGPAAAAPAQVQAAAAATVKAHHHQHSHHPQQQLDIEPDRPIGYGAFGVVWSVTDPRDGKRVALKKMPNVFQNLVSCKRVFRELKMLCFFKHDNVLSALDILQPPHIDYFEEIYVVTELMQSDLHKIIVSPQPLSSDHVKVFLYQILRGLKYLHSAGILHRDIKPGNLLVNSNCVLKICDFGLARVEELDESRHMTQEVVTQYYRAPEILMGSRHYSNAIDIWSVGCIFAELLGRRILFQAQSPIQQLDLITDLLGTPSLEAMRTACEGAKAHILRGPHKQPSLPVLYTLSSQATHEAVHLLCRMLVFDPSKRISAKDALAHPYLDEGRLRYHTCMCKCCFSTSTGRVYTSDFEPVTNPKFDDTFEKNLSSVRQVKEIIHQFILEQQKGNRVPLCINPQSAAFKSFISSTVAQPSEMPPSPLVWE
Sequence of UniProt P51817 (whole entry, looked up): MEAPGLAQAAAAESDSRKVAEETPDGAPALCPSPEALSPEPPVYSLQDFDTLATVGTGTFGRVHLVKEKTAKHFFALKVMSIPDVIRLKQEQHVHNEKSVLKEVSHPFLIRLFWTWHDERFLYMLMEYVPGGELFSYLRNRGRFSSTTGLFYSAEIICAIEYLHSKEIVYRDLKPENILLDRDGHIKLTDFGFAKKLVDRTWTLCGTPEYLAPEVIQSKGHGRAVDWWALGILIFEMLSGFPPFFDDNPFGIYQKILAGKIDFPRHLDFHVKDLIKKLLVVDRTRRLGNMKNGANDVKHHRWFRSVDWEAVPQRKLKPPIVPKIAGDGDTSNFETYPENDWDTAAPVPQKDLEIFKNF

Block 1
SMILES: COc1cc(C(=O)N2CCC(N3CCN(C)CC3)CC2)ccc1Nc1ncc2c(n1)N(C)c1ccccc1C(=O)N2C
target | assay | test system | conditions | inhibition [%]
OSR1 (human) | probe labelling, KiNativ ADP probe | human PBMC lysate | concentration not given, LYS2 labelled site | -42.5
SYK (mouse) | KiNativ ADP probe | mouse brain tissue | 0.1 µM, probe site Lys1 | 5.5
ABL and ARG (mouse) | probe labelling, KiNativ, refers to: Lys1 site peptide | brain tissue lysate (mouse) | 1 µM, added: ADP acyl-phosphate probe | -7
ILK (mouse) | probe labelling, KiNativ, refers to: WQGNDIVVkVLK peptide, LYS1 site | brain tissue lysate (mouse) | 0.1 µM, added: ADP acyl-phosphate probe | -8.8
PKCe (mouse) | probe labelling, KiNativ, refers to: LYS1 site peptide | brain tissue lysate (mouse) | 0.1 µM, added: ATP acyl-phosphate probe | 8.7
TLK1 and TLK2 human | KiNativ profiling | human PBMC | 0.1 µM, LYS2 site, added: ADP acyl phosphate probe | -8.8
CSK mouse | KiNativ profiling | mouse brain lysate | 1 µM, activation loop site, added: ADP acyl phosphate probe | -0.7
SLK mouse | KiNativ profiling | mouse brain lysate | 1 µM, LYS1 site, added: ADP acyl phosphate probe | -13.3
PKCe (mouse) | probe labelling, KiNativ, refers to: LYS1 site peptide | brain tissue lysate (mouse) | 1 µM, added: ATP acyl-phosphate probe | 14.6

Block 2 — cell line: mouse MPNST tumor cells; technique: high-content immunofluorescence imaging; refers to: nuclear SOX9; tested at: 10 µM; time: 12 h; setting: mean of 2 replicates; baseline: DMSO control; direction: higher = more nuclear SOX9
Compound | nuclear SOX9 intensity
Cn1c(=O)c2c(nc(N3CCNCC3)n2Cc2nnc(-c3ccc(Cl)c(Cl)c3)o2)n(C)c1=O | 154 % of DMSO
Nc1ncn([C@@H]2O[C@H](CO)[C@@H](O)[C@H]2O)c(=O)n1 | 113 % of DMSO
CN1C(=O)N(c2cc(Cl)cc(Cl)c2)C(=O)[C@]12CN(c1ccc(C(=O)O)cn1)C[C@H]2c1ccc(C#N)cc1 | 89.7 % of DMSO
Cc1nc2ccc(NC(=O)Nc3ccnc4cccnc34)cc2o1 | 112 % of DMSO
Cc1cc2c(cc1Cl)N(C(=O)Nc1ccc(Oc3cccnc3C)nc1)CC2 | 117 % of DMSO
N=C(N)NCCC[C@H](NC(=O)CC1(CC(=O)N2CCN(C3c4ccccc4NC(=O)c4ccccc43)CC2)CCCC1)C(=O)NCCn1c(=O)n(-c2ccccc2)n(-c2ccccc2)c1=O (stereo partly shown) | 109 % of DMSO
C[C@@H]1C[C@H]2[C@@H]3CCC4=CC(=O)C=C[C@]4(C)[C@@]3(Cl)[C@@H](O)C[C@]2(C)[C@@]1(OC(=O)c1ccco1)C(=O)CCl | 118 % of DMSO
Cc1cc(C(C)(C)C)c(O)c(C)c1CC1=NCCN1 | 105 % of DMSO
CN(C)CCOc1ccc(/C(=C(/CCCl)c2ccccc2)c2ccccc2)cc1 | 185 % of DMSO
COc1ncnc(NS(=O)(=O)c2ccc(N)cc2)c1OC | 110 % of DMSO
Cc1cc(/C(=C/Nc2ccc(Cl)cc2)C(=O)Nc2ccc(Cl)cc2)on1 | 123 % of DMSO

Block 3 — tested at: 0.1 µM
Compound: CNC(=O)c1ccc(Nc2ncc(C(F)(F)F)c(NCc3nccnc3N(C)S(C)(=O)=O)n2)cc1
target | effect on | technique | remaining binding
EPHB1 (Homo sapiens, UniProt P54762) | cell-free assay | competition with immobilised ligand | 87%
PAK4 (Homo sapiens, UniProt O96013) | cell-free assay | competition with immobilised ligand | 58%
TSSK3 (Homo sapiens, UniProt Q96PN8) | cell-free assay | competition with immobilised ligand | 77%
PDGFRB (Homo sapiens, UniProt P09619) | cell-free assay | competition with immobilised ligand | 83%
TNIK (Homo sapiens, UniProt Q9UKE5) | cell-free assay | competition with immobilised ligand | 65%
PIK3CA (Homo sapiens, UniProt P42336, E545A) | cell-free assay | competition with immobilised ligand | 98%
RAF1 (Homo sapiens, UniProt P04049) | cell-free assay | competition with immobilised ligand | 97%
MAP3K14 (Homo sapiens, UniProt Q99558) | cell-free assay | competition with immobilised ligand | 92%
MYLK4 (Homo sapiens, UniProt Q86YV6) | cell-free assay | competition with immobilised ligand | 100%
RET (Homo sapiens, UniProt P07949, V804L) | cell-free assay | competition with immobilised ligand | 30%
NEK11 (Homo sapiens, UniProt Q8NG66) | cell-free assay | competition with immobilised ligand | 89%
PRKG2 (Homo sapiens, UniProt Q13237) | cell-free assay | competition with immobilised ligand | 100%
HUNK (Homo sapiens, UniProt P57058) | cell-free assay | competition with immobilised ligand | 100%
MAPK15 (Homo sapiens, UniProt Q8TD08) | cell-free assay | competition with immobilised ligand | 40%
MTOR (Homo sapiens, UniProt P42345) | cell-free assay | competition with immobilised ligand | 100%
AAK1 (Homo sapiens, UniProt Q2M2I8) | binding |  | 80%
HIPK4 (Homo sapiens, UniProt Q8NE63) | cell-free assay | competition with immobilised ligand | 54%
Mast/stem cell growth factor receptor Kit, autoinhibited (KIT, Homo sapiens, UniProt P10721) | cell-free assay | competition with immobilised ligand | 100%
KDR (Homo sapiens, UniProt P35968) | cell-free assay | competition with immobilised ligand | 73%

Block 4 — SMILES: CCCCc1c(-c2ccc(OC)cc2)[nH]c2nccnc12; effect on: enzyme activity; action: inhibitor; tested at: 0.5 µM; baseline: control
target | remaining activity [%]
ITK (Homo sapiens, UniProt Q08881) | 99.4
HIPK1 (Homo sapiens, UniProt Q86Z02) | 109
FGR (Homo sapiens, UniProt P09769) | 57.1
PASK (Homo sapiens, UniProt Q96RG2) | 97.6
FLT4 (Homo sapiens, UniProt P35916) | 81.1
Insulin receptor (INSR, Homo sapiens, UniProt P06213) | 97.6
PRKX (Homo sapiens, UniProt P51817) | 102
LIM domain kinase 1 (LIMK1, Homo sapiens, UniProt P53667) | 65.3
CDC42BPA (Homo sapiens, UniProt Q5VT25) | 99.7
Cyclin-dependent kinase 3, with cyclin E (CDK3, Homo sapiens, UniProt Q00526) | 83.8
ALK (Homo sapiens, UniProt Q9UM73) | 96.7
MARK3 (Homo sapiens, UniProt P27448) | 91.2
MATK (Homo sapiens, UniProt P42679) | 101
AKT1 (Homo sapiens, UniProt P31749) | 113
NLK (Homo sapiens, UniProt Q9UBE8) | 88.4
PKN1 (Homo sapiens, UniProt Q16512) | 89.1
FYN (Homo sapiens, UniProt P06241) | 61.3
FER (Homo sapiens, UniProt P16591) | 59.8
TAOK3 (Homo sapiens, UniProt Q9H2K8) | 103
NEK11 (Homo sapiens, UniProt Q8NG66) | 93.6
SRC (Homo sapiens, UniProt P12931) | 58.8
STK25 (Homo sapiens, UniProt O00506) | 90.3

A few entries again (block 2):
Compound | nuclear SOX9 intensity
Cn1c(=O)c2c(nc(N3CCNCC3)n2Cc2nnc(-c3ccc(Cl)c(Cl)c3)o2)n(C)c1=O | 154 % of DMSO
Nc1ncn([C@@H]2O[C@H](CO)[C@@H](O)[C@H]2O)c(=O)n1 | 113 % of DMSO
CN1C(=O)N(c2cc(Cl)cc(Cl)c2)C(=O)[C@]12CN(c1ccc(C(=O)O)cn1)C[C@H]2c1ccc(C#N)cc1 | 89.7 % of DMSO
Cc1nc2ccc(NC(=O)Nc3ccnc4cccnc34)cc2o1 | 112 % of DMSO
